Experimental data of several laboratories.
Every numbered part comes from another study and shows a few of its results, in no order.

Block 1
Target: Ras GTPase-activating protein-binding protein 1, full length (G3BP1, Homo sapiens, UniProt Q13283)
UniProt Q13283, sequence (whole entry, looked up): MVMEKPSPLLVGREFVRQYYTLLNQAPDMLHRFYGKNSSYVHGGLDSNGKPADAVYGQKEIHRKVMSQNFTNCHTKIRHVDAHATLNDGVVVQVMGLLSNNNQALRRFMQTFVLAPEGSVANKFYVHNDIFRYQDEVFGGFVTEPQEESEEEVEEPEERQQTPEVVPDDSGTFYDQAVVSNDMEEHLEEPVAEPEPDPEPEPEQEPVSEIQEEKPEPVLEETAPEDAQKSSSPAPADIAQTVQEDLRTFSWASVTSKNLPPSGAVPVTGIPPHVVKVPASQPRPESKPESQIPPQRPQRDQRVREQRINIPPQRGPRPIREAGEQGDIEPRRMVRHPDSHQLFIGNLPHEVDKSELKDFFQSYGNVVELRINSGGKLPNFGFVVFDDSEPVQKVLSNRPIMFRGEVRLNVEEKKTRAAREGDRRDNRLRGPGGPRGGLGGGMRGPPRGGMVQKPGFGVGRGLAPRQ
Technique: RNA Bind-n-Seq
Form: RNA
Medium: in vitro
Tested at: 200 nM
Notes: whole 134-nt RNA, ends assumed
Added: 150 mM LiCl
Relative to: input library
Direction: higher = stronger binding
Quantity: log2 enrichment
Each molecule: 7-deaza-guanosine replaces G
Constant ends, left off below: GGGAGUUCUACAGUCCGACGAUC … UGGAAUUCUCGGGUGUCAAGG
CCUCAAGUCCUGUGCUACACAUCGUAUGUACCGAAUCGGUGGGUGGGGUGGGAAAGUAUUAUGUUACGCCGUUCGGAUCUGCACUUCCAG: -0.253
CACAGACAACACGCACCCACACAGAAAAAGAGGGAAGGGGUUGGGAUGGGGACAGGGUGCACAGCAGGGCGGGGUAGGACCCCAGCCCCU: 0.272
UCCUGUGCUACACAUCGUAUGUACCGAAUCGGGGAAAAAGGGGAAAAAGGAAAAAGGGGAAAGUAUUAUGUUACGCCGUUCGGAUCUGCA: -0.33
UAACUUUAGAGGAGGAUCUGGUGGAUAUGGCAGUGGACGUGGAUUUGGGGAUGGCUAUAAUGGGUAUGGAGGAGGACCUGGAGGUGGCAA: 0.00648
GUCCUGUGCUACACAUCGUAUGUACCGAAUCGGGGAAAAAGGGAAAAAGGAAAAAGGGGAAAGUAUUAUGUUACGCCGUUCGGAUCUGCA: -0.0667

Block 2
Target: Histone acetyltransferase KAT6A, winged helix 1, GST fusion (KAT6A, Homo sapiens, UniProt Q92794, residues 1-85)
Technique: protein binding microarray
Form: double-stranded DNA, one strand shown
Medium: in vitro
Tested at: not given
Notes: 8-mer, flanks averaged, mean of 2 arrays, mostly near background
Relative to: not given
Direction: higher = stronger binding
Quantity: E-score
Residues (chain): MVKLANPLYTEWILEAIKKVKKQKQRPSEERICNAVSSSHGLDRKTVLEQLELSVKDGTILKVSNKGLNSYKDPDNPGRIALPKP
AAATACTT: -0.103
AGAAAGTG: -0.108
CTAAGTCC: -0.0856
TCCCGCAA: 0.247

Block 3
Target: Centromere-binding protein 1, full length, His-tagged (CBF1, Saccharomyces cerevisiae, UniProt P17106, residues 1-351)
UniProt P17106, sequence (whole entry, looked up): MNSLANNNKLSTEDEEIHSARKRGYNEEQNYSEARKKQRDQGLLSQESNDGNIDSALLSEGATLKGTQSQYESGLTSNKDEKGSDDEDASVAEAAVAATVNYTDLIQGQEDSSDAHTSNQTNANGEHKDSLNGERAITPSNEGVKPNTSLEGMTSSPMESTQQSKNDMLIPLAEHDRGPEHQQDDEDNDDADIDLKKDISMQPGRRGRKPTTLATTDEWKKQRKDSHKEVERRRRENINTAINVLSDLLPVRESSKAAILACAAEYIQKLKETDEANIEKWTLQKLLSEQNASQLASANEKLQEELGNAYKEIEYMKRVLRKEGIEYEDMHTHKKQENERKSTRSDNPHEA
Technique: competition protein-binding microarray
Form: double-stranded DNA, one strand shown
Medium: in vitro
Tested at: 2 µM
Notes: whole 60-bp probe, lowest competitor level
Added: Pho4 competitor, 0.05 µM
Direction: higher = stronger binding
Quantity: fluorescence intensity
CGTCCTAGTGATTTTCACGTGCTGTCCATGAGGAAGGTCTTGATTCGCTTGACGCTGCTG: 1090 a.u.
CTAACGAAGGTTTTTCACGTGCCATACAAGCCAAGTGTCTTGATTCGCTTGACGCTGCTG: 1110 a.u.
GAAGAACCTTTACTACATGTGCTGCCAACCAAACCAGTCTTGATTCGCTTGACGCTGCTG: 120 a.u.
AACCAGCATTATTTGCACGCAAGGCCCATTGAAAAGGTCTTGATTCGCTTGACGCTGCTG: 79.6 a.u.

Other studies, line by line
PhoQ, residues 284 288 289 292 302 303 NSMLDC  fold induction (PhoP, residues 12 14 15 18 19 LYHSL (Escherichia coli, UniProt P23836); Sort-seq, measured: YFP reporter; E. coli; PhoQ-PhoP variant library, added: 10 µM Mg2+; relative to: high Mg2+ state, higher = stronger signaling): 0.813

For quick reference, copied from above (other studies, line by line):
PhoQ, residues 284 288 289 292 302 303 NSMLDC  fold induction (PhoP, residues 12 14 15 18 19 LYHSL (Escherichia coli, UniProt P23836); Sort-seq, measured: YFP reporter; E. coli; PhoQ-PhoP variant library, added: 10 µM Mg2+; relative to: high Mg2+ state, higher = stronger signaling): 0.813
